Published values gathered from unrelated publications.
± gives the spread as reported.

Oc1ccc2cc3ccc4cccc5ccc(c2c1)c3c45
half-life (UPLC-AMS; human, plasma; oral, 250 ng of [14C]-BaP): 1820 ± 2950 min

CC[C@H](C)[C@H](NC(=O)[C@H](CC(C)C)NC(=O)[C@H](Cc1c[nH]c2ccccc12)NC(=O)[C@H](CCC(N)=O)NC(=O)[C@@H](NC(=O)[C@H](Cc1ccccc1)NC(=O)[C@H](C)NC(=O)[C@H](CCCCNC(=O)COCCOCCNC(=O)COCCOCCNC(=O)CC[C@H](NC(=O)CCCCCCCCCCCCCCCCCCC(=O)O)C(=O)O)NC(=O)[C@H](CCC(N)=O)NC(=O)[C@H](C)NC(=O)[C@@H](NC(=O)[C@H](CCCCN)NC(=O)[C@H](CC(=O)O)NC(=O)[C@H](CC(C)C)NC(=O)C(C)(C)NC(=O)[C@@H](NC(=O)[C@H](CO)NC(=O)[C@H](Cc1ccc(O)cc1)NC(=O)[C@H](CC(=O)O)NC(=O)[C@H](CO)NC(=O)[C@@H](NC(=O)[C@H](Cc1ccccc1)NC(=O)[C@@H](NC(=O)CNC(=O)[C@H](CCC(=O)O)NC(=O)C(C)(C)NC(=O)[C@@H](N)Cc1ccc(O)cc1)[C@@H](C)O)[C@@H](C)O)[C@@H](C)CC)[C@@H](C)CC)C(C)C)C(=O)N[C@@H](C)C(=O)NCC(=O)NCC(=O)N1CCC[C@H]1C(=O)N[C@@H](CO)C(=O)N[C@@H](CO)C(=O)NCC(=O)N[C@@H](C)C(=O)N1CCC[C@H]1C(=O)N1CCC[C@H]1C(=O)N1CCC[C@H]1C(=O)N[C@@H](CO)C(N)=O
half-life (human, moderate renal impairment, plasma; subcutaneous, 5 mg single dose, geometric mean): 8820 min

O[C@H]1CCCN[C@@H]1CCCn1cnc2c(Cl)c(Cl)ccc21
half-life (healthy human volunteers, plasma; oral, 200 mg, day 1, multiple ascending dose): 224 min

O=c1[nH]c(Cc2ccccn2)nc2c1cnn2C1CCOCC1
half-life (healthy male human, plasma; oral, 100 mg, geometric mean): 161 min

C=C(C)[C@@H]1CCC(C)=C[C@H]1c1c(O)cc(CCCCC)cc1O
half-life (human, plasma; arithmetic mean, together with: rifampicin 600 mg once daily): 2130 min

COc1ccc(C[C@@H]2NC(=O)[C@H]([C@@H](C)O)NC(=O)[C@@H]3[C@@H]4CCN3C(=O)[C@@H]3Cc5cn(c6ccc(F)cc56)CCCCCCN(Cc5ccc(cc5)CCNC(=O)[C@]5(C)CCCN5C2=O)C(=O)CCC(=O)N[C@@H](C)C(=O)N[C@H](CNC(=O)CCCCC[N+](C)(C)C)C(=O)N[C@@H](Cc2cccc(c2)CNC(=O)CO4)C(=O)N3)cc1
half-life (healthy fasted humans, plasma; oral, 35 mg single dose, geometric mean, together with: Labrasol 1800 mg): 2570 min

CN[C@@H]1C[C@H]2O[C@@](C)([C@@H]1OC)n1c3ccccc3c3c4c(c5c6ccccc6n2c5c31)C(=O)N[C@@H]4O
half-life (human patients; intravenous infusion, 34 mg/m^2/24 h, 72 h infusion, cycle 1, mean, together with: prednisone): 22700 min

CC[C@@]1(O)C(=O)OCc2c1cc1n(c2=O)Cc2cc3c(CN(C)C)c(O)ccc3nc2-1
half-life (human patients; oral, 2.5 mg daily, 5 days, cycle 1 day 5, geometric mean, alone): 273 min

Oc1ccc2ccc3c4ccccc4cc4ccc1c2c43
half-life (UPLC-AMS; human, plasma; oral, 250 ng of [14C]-BaP): 1020 ± 1550 min

COc1ccsc1CNCC[C@@]1(c2ccccn2)CCOC2(CCCC2)C1
half-life (healthy human, normal renal function, plasma; intravenous, 1 mg single dose, arithmetic mean): 146 min

Cc1ncc(OC[C@@]2(c3cccc(F)c3)C[C@H]2C(=O)Nc2ccc(F)cn2)c(C)n1
half-life (human, plasma; 10 mg, mean, together with: fluconazole 200 mg): 5970 min
